Published values from different studies.
A part holds a random share of what one study measured. Positions count from the first letter of the parent shown.

Set 1 — technique: protein-binding microarray; form: double-stranded DNA, one strand shown; matrix: in vitro; concentration: 0.8 µM; notes: whole 60-bp probe, no competitor; reading: higher = stronger binding; constant ends, left off below: … GTCTTGATTCGCTTGACGCTGCTG
Target: Centromere-binding protein 1, full length, N-terminal tag (CBF1, Saccharomyces cerevisiae, UniProt P17106, residues 1-351)
Sequence of UniProt P17106 (whole entry, looked up): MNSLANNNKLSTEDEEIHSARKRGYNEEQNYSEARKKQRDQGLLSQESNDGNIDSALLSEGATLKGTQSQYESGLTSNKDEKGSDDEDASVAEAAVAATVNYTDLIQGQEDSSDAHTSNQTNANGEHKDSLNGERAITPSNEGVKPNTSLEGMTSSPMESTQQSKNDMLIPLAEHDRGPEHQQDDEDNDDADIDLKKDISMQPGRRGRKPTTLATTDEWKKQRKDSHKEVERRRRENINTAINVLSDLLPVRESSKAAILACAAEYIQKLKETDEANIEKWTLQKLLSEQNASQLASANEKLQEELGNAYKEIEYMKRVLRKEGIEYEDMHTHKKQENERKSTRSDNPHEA
Strand	fluorescence intensity
GAATTGTACATATACCTCACCTGAGTTTTGCTTTAG	507 a.u.
CTATTATCCATTTTTAACGTGGTGAGAAAACCCTTC	718 a.u.
GAAACACAAGTTCATCACCTACCTTCGAAAAATTAG	522 a.u.
TGTACGAAGCTATTAAGCACGCATATAGTAGTTAGG	523 a.u.
CTAACGGCTAATAAAAACGTGAACCTGTTTTAATTC	711 a.u.
GAACACATGATATATCATCACCCGGAGGCCGGTTAG	815 a.u.
GAACAATTTTTTTTACGCATGCAAGATATATGTTAG	623 a.u.

Set 2 — technique: protein binding microarray; form: double-stranded DNA, one strand shown; matrix: in vitro; concentration: not given; reference: not given; reading: higher = stronger binding
Target: Histone acetyltransferase KAT6A, winged helix 2, GST fusion (KAT6A, Homo sapiens, UniProt Q92794, residues 85-181)
Notes: 8-mer, flanks averaged, mean of 2 arrays, mostly near background
Construct (chain): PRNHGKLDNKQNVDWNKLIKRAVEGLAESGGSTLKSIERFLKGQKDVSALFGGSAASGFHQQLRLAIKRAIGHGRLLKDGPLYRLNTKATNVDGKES
Strand	E-score
AGCGTCAC	-0.0656
CTGTCACC	-0.0607
TAACACCA	-0.0264
ACATAGCT	-0.0779
ACCGCGGC	0.161
TGCACCAA	0.0602
AGTTGGAC	-0.134

Set 3 — technique: DHFR PCA, deep sequencing; matrix: yeast; added: (+)-ABA 710 µM; reference: wild-type fitted maximum; reading: higher = stronger binding
Target: ABI1, truncated, D143A, DHFR fusion (Arabidopsis thaliana)
Notes: methotrexate growth selection, single substitutions
Parent: PYL1, truncated, DHFR fusion (Arabidopsis thaliana); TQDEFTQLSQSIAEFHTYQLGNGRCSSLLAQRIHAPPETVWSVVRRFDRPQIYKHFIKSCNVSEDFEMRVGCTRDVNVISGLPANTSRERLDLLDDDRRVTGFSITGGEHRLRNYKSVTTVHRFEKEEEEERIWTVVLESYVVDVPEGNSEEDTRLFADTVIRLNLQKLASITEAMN; partner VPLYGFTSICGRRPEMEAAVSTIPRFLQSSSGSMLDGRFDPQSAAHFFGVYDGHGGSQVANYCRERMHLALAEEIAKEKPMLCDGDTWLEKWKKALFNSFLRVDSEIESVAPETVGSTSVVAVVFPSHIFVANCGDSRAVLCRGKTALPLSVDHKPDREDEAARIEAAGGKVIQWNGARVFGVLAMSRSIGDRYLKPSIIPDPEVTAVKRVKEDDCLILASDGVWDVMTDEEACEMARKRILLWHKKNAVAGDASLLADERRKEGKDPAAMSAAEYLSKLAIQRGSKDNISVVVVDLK
Variant	relative binding score [%]
K58V	91.3
R32P	87.5
R99N	104
Q2I	100
C25W	53

Single results of other studies
Molecule	target	assay	system	conditions	how to read	endpoint	result
PhoQ, residues 284 288 289 292 302 303 AGCYAI	PhoP, residues 12 14 15 18 19 NQGLL (Escherichia coli, UniProt P23836)	Sort-seq, item: YFP reporter	E. coli	PhoQ-PhoP variant library, added: 10 µM Mg2+	reference: high Mg2+ state, higher = stronger signaling	fold induction	4.2

Repeated from above (set 2):
Strand	E-score
TGCACCAA	0.0602
AGTTGGAC	-0.134
